Results gathered from unrelated publications.
Protocols differ between the studies behind these lines. Several values in a cell are separate wells, animals, samples, runs or records. ± marks the error that the study gave.
Chain of UniProt O00311 (whole entry, looked up): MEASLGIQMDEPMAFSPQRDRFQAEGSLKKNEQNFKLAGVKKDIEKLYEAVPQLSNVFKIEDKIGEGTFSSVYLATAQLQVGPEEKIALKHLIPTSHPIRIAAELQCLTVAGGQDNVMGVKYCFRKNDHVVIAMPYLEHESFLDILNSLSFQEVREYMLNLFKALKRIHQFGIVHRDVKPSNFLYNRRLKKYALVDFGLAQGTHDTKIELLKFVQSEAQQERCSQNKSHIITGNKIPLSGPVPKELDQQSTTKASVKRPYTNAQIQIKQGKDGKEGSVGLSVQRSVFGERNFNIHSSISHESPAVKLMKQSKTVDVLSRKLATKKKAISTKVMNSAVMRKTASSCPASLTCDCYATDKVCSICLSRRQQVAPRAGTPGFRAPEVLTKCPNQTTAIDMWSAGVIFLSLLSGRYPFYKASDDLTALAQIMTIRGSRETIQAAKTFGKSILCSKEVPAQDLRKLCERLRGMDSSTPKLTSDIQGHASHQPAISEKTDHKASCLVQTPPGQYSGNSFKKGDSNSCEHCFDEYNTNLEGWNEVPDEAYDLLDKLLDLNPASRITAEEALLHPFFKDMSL

SMILES	target or system	assay	test system	conditions	scale	endpoint	result
CN1CCN(S(=O)(=O)c2cc([N+](=O)[O-])ccc2N(CCOS(C)(=O)=O)CCOS(C)(=O)=O)CC1			naive NOD/SCID mice, pooled blood	intraperitoneal, 18.8 mg/kg, week 4		albumin	41 g/L
C[C@H](NC(=O)c1c(C(F)F)nn(C)c1Oc1cccc(C(F)(F)F)c1)c1ccc(C(=O)O)cc1			human, plasma	250 mg, cycle 1 day 8, mean		AUC(0-t)	2270 ng·h/mL
CCc1ccc(CC/C=C/c2ccc3c(c2)C(=O)CC3)cc1			Sprague-Dawley rat, female	oral, 30 mg/kg/day, 14 days		Fibrinogen	2.63 g/L
CC(C)C[C@H](NC(=O)[C@H](CCCCN)NC(=O)OCC1c2ccccc2-c2ccccc21)C(=O)N[C@H](C(=O)N[C@@H](Cc1ccccc1)C(=O)N[C@@H](Cc1ccccc1)C(=O)N[C@@H](CCCCN)C(=O)NCC(=O)N[C@@H](Cc1ccccc1)C(=O)N[C@@H](C)C(=O)N[C@@H](Cc1c[nH]c2ccccc12)C(=O)N[C@@H](CC(N)=O)C(=O)N[C@H](C(=O)N[C@H]1CSSC[C@@H](C(=O)N[C@@H](Cc2c[nH]cn2)C(=O)N[C@@H](CCCNC(=N)N)C(=O)N[C@@H](CCCNC(=N)N)C(=O)N[C@@H](C)C(=O)N[C@@H](CC(N)=O)C(N)=O)NC(=O)[C@H](C(C)C)NC(=O)[C@H](CCCNC(=N)N)NC(=O)[C@H](C(C)C)NC(=O)CNC(=O)[C@H](CC(N)=O)NC(=O)[C@H](CCCNC(=N)N)NC(=O)[C@H](Cc2ccc(O)cc2)NC(=O)[C@H](C(C)C)NC1=O)C(C)C)C(C)C		HPLC	trypsin buffer	2.00 h, 37 °C, with: trypsin 1 % w/v		peptide remaining	53.7% and 52.1% and 59.3%
CN(C(=O)n1cnc(-c2ccc[n+]([O-])c2)c1)C1CCCCC1			Wistar rat, medulla oblongata	oral, 10 mg/kg, 24 h, single dose		concentration	9.5 ± 0.4 ng/g
O=C(Nc1ccccc1)C1CCN(C(=O)Oc2cccnc2)CC1		Bond-Lader VAS	healthy women	oral, 60 mg	reference: pre-dose baseline, direction not given	change in Interested-Bored score	-8.2
COc1ccc(Nc2nc(Nc3ccc(OC)cc3OC)nc(N3CCOCC3)n2)c(OC)c1	Vero-E6	CellTiter-Glo ATP		concentration not given, 72 h, retest 8-point duplicates	reference: DMSO 0%, hyamine -100%, more negative, more toxic	cytotoxicity efficacy	-17.1%
C[C@]1(CO)Cc2ncn(-c3ccc(C#N)c(Cl)c3)c2C(=O)O1		item: involuntary muscle contractions	human	0.7 mg single dose		subjects with drug-related TEAE	0%
NCCCC[C@@H]1NC(=O)[C@@H](Cc2c[nH]c3ccccc23)NC(=O)[C@H](c2ccccc2)NC(=O)[C@@H]2C[C@@H](OC(=O)NCCN)CN2C(=O)[C@H](Cc2ccccc2)NC(=O)[C@H](Cc2ccc(OCc3ccccc3)cc2)NC1=O			healthy human volunteers	600 µg twice daily		subjects with any adverse event	97%
C[C@@H](NC(=O)N1C(=O)[C@H](Cc2ccnc(N)c2)[C@H]1C(=O)O)C1CCCCC1			healthy adult Chinese volunteers	continuous intravenous infusion, 1.0 mg/kg/h, 5-day infusion, CTCAE 5.0 grading		incidence of urine ketone body positive	0%
COc1ncccc1-c1cnn2ccc(N3CCN(C(=O)OC(C)C)CC3)nc12			mouse nerve ligation model, plasma	oral, 10 mg/kg, 180 min after last dose, repeat dosing day 1		drug concentration	1600 nM
CCS(=O)(=O)Nc1ccc(Oc2ccc(F)cc2F)c(-c2cn(C)c(=O)c3[nH]ccc23)c1		skin laceration leading to discontinuation	human, relapsed/refractory AML	oral, dose not given		treatment-emergent adverse events	0%
O=c1nc(NO)ccn1[C@@H]1O[C@H](CO)[C@@H](O)[C@H]1O			rat fetus dialysate	25 ng/mL, 6 h, room temperature, low concentration, with: molnupiravir 5 ng/mL		bench-top stability	106 ± 6.34%
CCCCN1CCC(COC(=O)c2ccc(N)c(O[11CH3])c2)CC1		radioligand hydrolysis, esterase inhibitor	rhesus monkey whole blood	concentration not given		inhibition	94 ± 2%
O=S(=O)(Nc1ccccc1)c1ccc(NC(=S)Nc2ccccc2)cc1		item: ALT	male mouse, blood	oral, 5 mg/kg daily, 14 days		serum enzyme activity	53.8 U/L
Cc1noc2c(NC3CCOCC3)cc(-c3cccc(C(F)(F)F)c3)nc12	Vero-E6	CellTiter-Glo ATP		72 h, first round 5-point	reference: DMSO 0%, hyamine -100%, more negative, more toxic	maximum response	-22.9%
Cn1cc(-c2nc(N[C@@H]3CCCC[C@@H]3N)c(F)c3c2C(=O)NC3)cn1		item: Epistaxis	patients with relapsed or refractory AML	oral, 80 mg twice daily		hemorrhagic adverse events	33%
Nc1nc2cc(-c3ccc4ncc(C(=O)N5CCOCC5)n4c3)ccc2o1			human, advanced solid tumours	once-daily schedule		MTD	150 mg
C[C@H]1COCCN1c1nc(NCc2cccnc2C(F)(F)F)c2cccnc2n1			anaesthetized rat, plasma	intravenous, 30 mg/kg, 5 min		plasma concentration	155 µg/mL
C=CC(=O)Nc1cc(Nc2nccc(Nc3cc(Cl)c(F)cc3C(C)(C)O)n2)c(OC)cc1N1CC[C@@H](N(C)C)C1			human patients	oral, 200 mg, treatment-emergent adverse events		patients with dizziness	6.3%

SMILES	target or system	assay	test system	conditions	scale	endpoint	result
CC(=O)N1CCC(Nc2cc(C(=O)NC[C@H](O)CN3CCc4ccccc4C3)ncn2)CC1			relapsed or refractory MDS CMML AML	oral, 300 mg		deaths	82%
COc1cc2c(Oc3ccc4[nH]c(C)cc4c3F)ccnc2cc1OCC1(N)CC1			paediatric recurrent refractory sarcoma	8 mg/kg		grade 1 or 2 Tinnitus	0%
Cc1nonc1Cn1nnc2c(N3CC[C@H](O)C3)nc(C(C)(C)C)nc21			C57BL/6 mice	intravenous, 0.5 mg/kg		half-life	2.59 h
C=CC(=O)N1CC[C@H](n2nc(C#Cc3cc(OC)cc(OC)c3)c3c(N)ncnc32)C1			human patients	oral, dose not given, QD regimen, adverse drug reaction, with: any phosphate binder		ALT increased, any grade	20%
Nc1ncnc2c1ncn2[C@@H]1O[C@@H]2COP(=O)([S-])O[C@@H]3[C@H](O)[C@@H](COP([O-])(=S)O[C@H]2[C@H]1O)O[C@H]3n1cnc2c(N)ncnc21.[Na+].[Na+] (stereo partly drawn)			non-tumor-bearing mice, serum	intravenous, 1 mg/kg, toxicity study		GGT	0.075 ± 0.09 U/L
CCN1[C@@H](C(=O)NC23CCC(C(=O)O)(CC2)CC3)[C@H](c2cccc(Cl)c2F)[C@]2(C(=O)Nc3cc(Cl)ccc32)C12CCCCC2			patients with advanced solid tumours	oral, 200 mg		Ageusia incidence	0%
CCCCCCCCCCCCCCCC(=O)N[C@@H](CCC(=O)NCCCC[C@H](NC(=O)[C@H](CC(=O)O)NC(=O)[C@H](CO)NC(=O)[C@@H](NC(=O)[C@H](Cc1ccccc1)NC(=O)[C@@H](NC(=O)CNC(=O)[C@H](CCC(N)=O)NC(=O)[C@H](CO)NC(=O)[C@@H](N)Cc1c[nH]cn1)[C@@H](C)O)[C@@H](C)O)C(=O)N[C@@H](CO)C(=O)N[C@@H](CCC(=O)O)C(=O)N[C@@H](Cc1ccc(O)cc1)C(=O)N[C@@H](CC(C)C)C(=O)N[C@@H](CC(=O)O)C(=O)N[C@@H](CO)C(=O)N[C@@H](CCC(=O)O)C(=O)N[C@@H](CCCNC(=N)N)C(=O)N[C@@H](C)C(=O)N[C@@H](CCCNC(=N)N)C(=O)N[C@@H](CC(=O)O)C(=O)N[C@@H](Cc1ccccc1)C(=O)N[C@H](C(=O)N[C@@H](C)C(=O)N[C@@H](Cc1c[nH]c2ccccc12)C(=O)N[C@@H](CC(C)C)C(=O)N[C@@H](CCC(=O)O)C(=O)N[C@@H](C)C(=O)NCC(=O)NCC(=O)O)C(C)C)C(=O)O			human, CrCl ≥20 to <30 mL/min	sc, 100 µg single dose		injection site bruising	0%
CO[C@H]1C[C@@H]2CC[C@@H](C)[C@@](O)(O2)C(=O)C(=O)N2CCCC[C@H]2C(=O)O[C@H]([C@H](C)C[C@@H]2CC[C@@H](OC(=O)NCCOCCOCCOCCOCCOCCOCCOCCOCCC(=O)N3CCc4cc(Cn5nc(-c6ccc7oc(N)nc7c6)c6c(N)ncnc65)ccc4C3)[C@H](OC)C2)C[C@@H](O)[C@H](C)/C=C(\C)[C@@H](O)[C@@H](OC)C(=O)[C@H](C)C[C@H](C)/C=C/C=C/C=C/1C			patients with advanced solid tumours	intravenous, 1.6 mg/3 mg weekly, grade ≥3		incidence of Rash TRAE	0%
[O-][S+]1CCc2nc(N3CCC(c4ncc(Cl)cn4)CC3)nc(NC3(CO)CCC3)c21 (stereo not drawn)			healthy male subjects	36 mg single dose, 11.9 (unit not given), after last treatment		haemoglobin	129 g/L
CC1(C)C(/C=C(\Cl)C(F)(F)F)C1C(=O)OC(C#N)c1cccc(Oc2ccccc2)c1 (stereo not drawn)		IVIVE scaling	human adult			hepatic intrinsic clearance	3720 L/h/kg liver
C[C@H]1CN(c2n[nH]c3nc(N[C@H]4CC[C@H](NS(=O)(=O)CCC(F)(F)F)CC4)ncc23)CCO1	CDC7 (Homo sapiens, UniProt O00311)	inhibitor, Kinobeads competition profiling		0.16 µM	reference: vehicle	relative abundance	1.03
CC(C)[C@@H]1NC(=O)CNC(=O)[C@H](CC(N)=O)NC(=O)[C@H](CCCNC(=N)N)NC(=O)[C@H](Cc2ccc(O)cc2)NC(=O)[C@H](C(C)C)NC(=O)[C@@H](NC(=O)[C@@H](NC(=O)[C@H](CC(N)=O)NC(=O)[C@H](Cc2c[nH]c3ccccc23)NC(=O)[C@H](C)NC(=O)[C@H](Cc2ccccc2)NC(=O)CN)C(C)C)CSSC[C@@H](C(=O)N[C@@H](Cc2cnc[nH]2)C(=O)N[C@@H](CCCNC(=N)N)C(=O)N[C@@H](CCCNC(=N)N)C(=O)N[C@@H](C)C(=O)N[C@@H](CC(N)=O)C(N)=O)NC(=O)[C@H](C(C)C)NC(=O)[C@H](CCCNC(=N)N)NC1=O			ICR mouse, blood	intramammary, 5 mg/kg, day 5, 3 d dosing		basophils	1.43 ± 0.14%
COc1ccnc(C(=O)N[C@H]2COC(=O)[C@H](Cc3ccccc3)[C@@H](OC(=O)C(C)C)[C@H](C)OC2=O)c1OCOC(=O)C(C)C		aerobic dark soil incubation	clay loam soil	20 °C, modelling endpoint		DT50	2.06 days
COc1ccc(C[C@@H]2NC(=O)[C@H]([C@@H](C)O)NC(=O)[C@@H]3[C@@H]4CCN3C(=O)[C@@H]3Cc5cn(c6ccc(F)cc56)CCCCCCN(Cc5ccc(cc5)CCNC(=O)[C@]5(C)CCCN5C2=O)C(=O)CCC(=O)N[C@@H](C)C(=O)N[C@H](CNC(=O)CCCCC[N+](C)(C)C)C(=O)N[C@@H](Cc2cccc(c2)CNC(=O)CO4)C(=O)N3)cc1		item: Asthenia	humans	concentration not given, Study-003		participants with adverse event	3.2%
Cn1cncc1-c1c(F)cncc1NC(=O)c1c(N)nn2cc(F)cnc12			human patients	oral, 220 mg once daily, 21 days, 2 weeks on 1 week off		patients with platelet decrease DLT	0%
COc1cc(C2C3=C(COC3=O)N(CCO)c3cc4c(cc32)CCC4)cc(OC)c1OC (stereo not drawn)			female C57BL/6 mice	intraperitoneal, 100 mg/kg, 24 h, single dose, mean		body weight	20.7 g
COc1ccc2nc3cc(Cl)ccc3c(Nc3cc(CN4CCCC4)c(O)c(CN4CCCC4)c3)c2n1			mouse, blood	intraperitoneal, 28 mg/kg		haemoglobin	166 g/L
C[C@]12CC[C@@H]3c4ccc(O)cc4CC[C@H]3[C@@H]1CCC2=O		ultrafiltration	cow milk whey	2000 nM nominal in whole milk		final permeate concentration	26.4 nM
CC(=O)c1c(C)c2cnc(Nc3ccc(C4CCN(CCS(C)(=O)=O)CC4)cn3)nc2n(C2CCCC2)c1=O			human, plasma	oral, dose not given, steady state, continuous dosing, range over doses		CL	824 to 3190 mL/min

Repeated from above:
SMILES	target or system	assay	test system	conditions	scale	endpoint	result
COc1ccc(Nc2nc(Nc3ccc(OC)cc3OC)nc(N3CCOCC3)n2)c(OC)c1	Vero-E6	CellTiter-Glo ATP		concentration not given, 72 h, retest 8-point duplicates	reference: DMSO 0%, hyamine -100%, more negative, more toxic	cytotoxicity efficacy	-17.1%
C[C@]1(CO)Cc2ncn(-c3ccc(C#N)c(Cl)c3)c2C(=O)O1		item: involuntary muscle contractions	human	0.7 mg single dose		subjects with drug-related TEAE	0%
NCCCC[C@@H]1NC(=O)[C@@H](Cc2c[nH]c3ccccc23)NC(=O)[C@H](c2ccccc2)NC(=O)[C@@H]2C[C@@H](OC(=O)NCCN)CN2C(=O)[C@H](Cc2ccccc2)NC(=O)[C@H](Cc2ccc(OCc3ccccc3)cc2)NC1=O			healthy human volunteers	600 µg twice daily		subjects with any adverse event	97%
C[C@@H](NC(=O)N1C(=O)[C@H](Cc2ccnc(N)c2)[C@H]1C(=O)O)C1CCCCC1			healthy adult Chinese volunteers	continuous intravenous infusion, 1.0 mg/kg/h, 5-day infusion, CTCAE 5.0 grading		incidence of urine ketone body positive	0%
COc1ncccc1-c1cnn2ccc(N3CCN(C(=O)OC(C)C)CC3)nc12			mouse nerve ligation model, plasma	oral, 10 mg/kg, 180 min after last dose, repeat dosing day 1		drug concentration	1600 nM
CCS(=O)(=O)Nc1ccc(Oc2ccc(F)cc2F)c(-c2cn(C)c(=O)c3[nH]ccc23)c1		skin laceration leading to discontinuation	human, relapsed/refractory AML	oral, dose not given		treatment-emergent adverse events	0%
O=c1nc(NO)ccn1[C@@H]1O[C@H](CO)[C@@H](O)[C@H]1O			rat fetus dialysate	25 ng/mL, 6 h, room temperature, low concentration, with: molnupiravir 5 ng/mL		bench-top stability	106 ± 6.34%
